Experimental data of several laboratories.
Each numbered part is a random draw from the data of one study; scales do not carry over between parts.

Series 1
Target: RING finger protein unkempt homolog, zinc fingers 1-6, GST-SBP tag (UNK, Homo sapiens, UniProt Q9C0B0, residues 30-357)
Chain of UniProt Q9C0B0 (30-357, looked up): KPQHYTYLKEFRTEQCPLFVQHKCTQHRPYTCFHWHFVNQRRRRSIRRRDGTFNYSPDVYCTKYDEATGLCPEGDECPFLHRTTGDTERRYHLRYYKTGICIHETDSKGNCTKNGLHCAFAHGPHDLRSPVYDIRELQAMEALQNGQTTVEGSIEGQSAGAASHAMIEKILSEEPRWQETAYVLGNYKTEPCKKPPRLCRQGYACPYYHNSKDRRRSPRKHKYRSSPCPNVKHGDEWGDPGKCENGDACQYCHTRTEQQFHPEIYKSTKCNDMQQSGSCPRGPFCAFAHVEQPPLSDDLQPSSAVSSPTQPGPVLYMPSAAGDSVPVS
Technique: RNA Bind-n-Seq
Molecule type: RNA
Medium: in vitro
Concentration: not given
Notes: RNA with constant flanks, human and mouse sites, ends assumed
Reference: input RNA pool
Direction: higher = stronger binding
Sequence	bound/input enrichment
GGGAGUUCUACAGUCCGACGAUCUUGGUCUUCAAGGACUUUUACCUCCUAAAAUAGAGACACAGGAUAUUCAAGCCUUACGAUUCCAUAGAAACUUGAAAAAAAUGACUAGCCCUUUGGAAAAAUACAUUUAUAUAAUGGGCACAACAGAGGAUUGAGCAUCA	7.82 ratio
GGGAGUUCUACAGUCCGACGAUCAAAAUACUUCACAAUGAUCCAGAAGUUGAGAAGAAGCAGGGAUGGACAACCGUAGGGGAUUUGGAAGGAUGUGUACAUUAUAAAGUUGUAAAAUAUGAAAGAAUCAAAUUUCUGGUGAUUCAACAGAGGAUUGAGCAUCA	1.65 ratio
GGGAGUUCUACAGUCCGACGAUCAAGUAUUCCUCGGGAUGUUUUUAUAUAAAUUAUGUUUUGGAAUAGAACAUAAAUGACUUUGAGUUAGGAUAAGGAUGAUAGGAUGGGUGCUGGAGAUGCCCUGCCUUGCUUAUUUGUUUCCAACAGAGGAUUGAGCAUCA	0.583 ratio

Series 2
Target: PABPC1L2, full length, GST fusion (mouse, UniProt A0ABA7IW68)
Technique: RNAcompete
Molecule type: RNA
Medium: in vitro
Concentration: 20 nM
Notes: 7-mer, probes averaged, single round
Reference: mean of 7-mers
Direction: higher = stronger binding
Residues (chain): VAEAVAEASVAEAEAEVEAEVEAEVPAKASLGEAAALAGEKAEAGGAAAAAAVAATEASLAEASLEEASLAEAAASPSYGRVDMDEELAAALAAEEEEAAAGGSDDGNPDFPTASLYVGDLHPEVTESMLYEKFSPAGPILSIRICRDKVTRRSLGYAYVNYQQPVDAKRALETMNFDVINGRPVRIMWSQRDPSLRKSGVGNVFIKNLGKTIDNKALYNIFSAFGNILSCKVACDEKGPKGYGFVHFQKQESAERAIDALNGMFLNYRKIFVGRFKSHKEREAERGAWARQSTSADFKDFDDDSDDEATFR
Sequence	7-mer Z-score
AGUCAAC	-0.217
GCGAUGC	-0.122
AUACACU	-0.115
UGCCUAC	-0.253

Series 3
Target: Histone acetyltransferase KAT6A, both winged helices, GST fusion (KAT6A, Homo sapiens, UniProt Q92794, residues 1-181)
Technique: protein binding microarray
Molecule type: double-stranded DNA, one strand shown
Medium: in vitro
Concentration: not given
Notes: 8-mer, flanks averaged, mean of 2 arrays, mostly near background
Reference: not given
Direction: higher = stronger binding
Target sequence (chain): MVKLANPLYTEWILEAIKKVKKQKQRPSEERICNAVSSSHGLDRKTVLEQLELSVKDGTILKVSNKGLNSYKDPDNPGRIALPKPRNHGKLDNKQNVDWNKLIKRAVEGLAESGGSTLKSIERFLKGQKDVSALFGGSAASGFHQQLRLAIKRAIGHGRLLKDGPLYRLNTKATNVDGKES
Sequence	E-score
CGCGCTAA	0.339
AGATATAT	-0.00043
ACTCAGAG	-0.0611
ACTCAGAA	-0.134

Further values, each from its own experiment
Substance	target	test	test system	conditions	how to read	quantity	result
PhoQ, residues 284 288 289 292 302 303 GTAMQF	PhoP, residues 12 14 15 18 19 IQSYL (Escherichia coli, UniProt P23836)	Sort-seq, item: YFP reporter	E. coli	PhoQ-PhoP variant library, added: 10 µM Mg2+	reference: high Mg2+ state, higher = stronger signaling	fold induction	25.2

Repeated from above (series 2):
Sequence	7-mer Z-score
UGCCUAC	-0.253
AGUCAAC	-0.217
